Measurements pooled from the literature.
Each line is one published result; not all experiments were run side by side.
Matrix: Caco-2

| SMILES | concentration | time | pH | measurement | result |
| --- | --- | --- | --- | --- | --- |
| CC1(C)CCN(Cc2ccc(C(=O)NC[C@]3(O)CCCN(c4cc(NCc5ccccc5)ncn4)C3)c(O)c2)CC1 | 10 µM | 90 min | – | Papp | 25.6 ×10⁻⁶ cm/s |
| Cc1cc(O)cc(O)c1C(=O)c1c2c3c(c(O)cc(C)c3oc1=O)C(=O)c1c(O)cc(O)cc1-2 | 200 µM | 3 h | pH 7.4 | Papp B→A | 0.031 ×10⁻⁶ cm/s |
| CC1(C)CCC2(CO)C(=C3C=CC4[C@@]5(C)CCC(O)[C@@](C)(CO)C5CC[C@@]4(C)[C@]3(C)C[C@H]2O)C1 (stereo partly shown) | 10 µM | 3 h | – | Papp B→A | 0.063 ×10⁻⁶ cm/s |
| O=C(Nc1nc2cc(C(F)(F)F)cc(NC3CC3)n2n1)c1cccnc1 | 10 µM | 2 h | – | Papp | 51 ×10⁻⁶ cm/s |
| Cc1cc(N2CCC(C#N)(C3(C)CC3)C2=O)cc(C(=O)NCc2cc(F)cc(-c3cnn(C)c3)c2)n1 (racemic) | 20 µM | 2 h | pH 7.4 | Papp A→B | 22 ×10⁻⁶ cm/s |
| CO[C@@H](C[C@H]1C(C)=CC[C@@H]2[C@]3(C)C[C@H](O[C@@H]4O[C@@H](C)[C@H](O)[C@@H](O)[C@H]4O)[C@@H](O)C(C)(C)[C@H]3CC[C@]21C)[C@H](N)C(=O)O | 5 µM | 1 h | – | Papp A→B | 0.06 ×10⁻⁶ cm/s |
| NC(=O)c1c(F)ccc(OCc2nc3cc(Cl)cnc3s2)c1F | – | – | – | Papp B→A | 31.4 ×10⁻⁶ cm/s |
| CCC/C(=C\C1=C(OC)C(=O)c2ccccc2C1=O)C(=O)NOC | – | – | – | Papp A→B | 41.7 ×10⁻⁶ cm/s |
| COc1ccc2c(c1OCc1ccccc1)C[C@@H](C(=O)O)N(c1nc3ccc(C#N)cc3o1)C2 | 10 µM | 90 min | pH 7.4 | Papp B→A | 13.9 ×10⁻⁶ cm/s |
| Cc1nc(N[C@@H](C)c2ccc(-c3nc(C4CC4)no3)cc2)c2cc(C)oc2n1 | – | – | – | Papp | 11.7 ×10⁻⁶ cm/s |
| CCOC(=O)c1cc2cc(-c3cc(C(=O)NCc4ccc(C(=O)O)cc4)nn3C)ccc2[nH]1 | 50 mM | 2.5 h | pH 7.4 | Papp B→A | 15 ×10⁻⁶ cm/s |
| COC(=O)c1ccc2c(c1)NC(=O)/C2=C(\Nc1ccc2c(c1)CCN2C(=O)CN1CCOCC1)c1ccccc1 | 2 µM | 2 h | – | Papp B→A | 1.14 ×10⁻⁶ cm/s |
| O=C(C1CCN(c2nnnn2-c2ccccc2)CC1)N1CCCc2ccccc21 | 5 µM | 2 h | – | Papp A→B | 17.5 ×10⁻⁶ cm/s |

Excerpt of the above:
| SMILES | concentration | time | pH | measurement | result |
| --- | --- | --- | --- | --- | --- |
| CO[C@@H](C[C@H]1C(C)=CC[C@@H]2[C@]3(C)C[C@H](O[C@@H]4O[C@@H](C)[C@H](O)[C@@H](O)[C@H]4O)[C@@H](O)C(C)(C)[C@H]3CC[C@]21C)[C@H](N)C(=O)O | 5 µM | 1 h | – | Papp A→B | 0.06 ×10⁻⁶ cm/s |
| NC(=O)c1c(F)ccc(OCc2nc3cc(Cl)cnc3s2)c1F | – | – | – | Papp B→A | 31.4 ×10⁻⁶ cm/s |
